Experimental data collected from several papers.
Organism: Enterococcus faecalis

| SMILES | test | test system | setting | MIC |
| --- | --- | --- | --- | --- |
| CN[C@H](CC(C)C)C(=O)N[C@H]1C(=O)N[C@@H](CC(N)=O)C(=O)N[C@H]2C(=O)N[C@H]3C(=O)N[C@H](C(=O)N[C@H](C(=O)O)c4cc(O)cc(O)c4-c4cc3ccc4O)[C@H](O)c3ccc(c(Cl)c3)Oc3cc2cc(c3O[C@@H]2O[C@H](CO)[C@@H](O)[C@H](O)[C@H]2O[C@H]2C[C@](C)(N)[C@H](O)[C@H](C)O2)Oc2ccc(cc2Cl)[C@H]1O |  | ATCC 51575 vancomycin-resistant |  | > 50 µg/mL |
| Cn1c(=O)ccc2ccc(F)c(CCNC[C@H]3CN(c4ccc5c(n4)NC(=O)CO5)C(=O)O3)c21 |  | ATCC 29212 |  | 0.03 µg/mL |
| CN(C)[C@@H]1C(O)=C(C(N)=O)C(=O)[C@@]2(O)C(O)=C3C(=O)c4c(O)cnc(F)c4C[C@H]3C[C@@H]12.Cl |  | tet(M)-carrying |  | 32 µg/mL |
| CN[C@H](CC(C)C)C(=O)N[C@H]1C(=O)N[C@@H](CC(N)=O)C(=O)N[C@H]2C(=O)N[C@H]3C(=O)N[C@H](C(=O)N[C@H](C(=O)O)c4cc(O)cc(O)c4-c4cc3ccc4O)[C@H](O)c3ccc(c(Cl)c3)Oc3cc2cc(c3O[C@@H]2O[C@H](CO)[C@@H](O)[C@H](O)[C@H]2O[C@H]2C[C@](C)(N)[C@H](O)[C@H](C)O2)Oc2ccc(cc2Cl)[C@H]1O |  | vancomycin-susceptible |  | 2 µg/mL |
| CC[C@H](C)[C@H](N)C(=O)N[C@@H](CCCNC(=N)N)C(=O)N[C@H](C(=O)N[C@@H](Cc1c[nH]c2ccccc12)C(=O)N[C@@H](Cc1ccccc1)C(=O)N[C@H](C(=O)N[C@@H](CCCCN)C(=O)N[C@H](C(=O)N[C@@H](CCCNC(=N)N)C(=O)N[C@@H](CCCCN)C(=O)N[C@@H](Cc1c[nH]c2ccccc12)C(=O)N[C@@H](CCCCN)C(=O)N[C@@H](C)C(=O)N[C@H](C(=O)N[C@@H](Cc1ccc(O)cc1)C(=O)N[C@@H](Cc1c[nH]cn1)C(=O)N[C@H](C(N)=O)[C@@H](C)O)[C@@H](C)CC)C(C)C)[C@@H](C)CC)C(C)C | broth dilution | KCTC 3511 |  | 12.5 µM |
| CC(C)C[C@@H](NC(=O)[C@H](C)NC(=O)CNC(=O)[C@@H](NC=O)C(C)C)C(=O)N[C@@H](C)C(=O)N[C@@H](C(=O)N[C@H](C(=O)N[C@@H](C(=O)N[C@@H](Cc1c[nH]c2ccccc12)C(=O)N[C@H](CC(C)C)C(=O)N[C@@H](Cc1ccc2[nH]ccc2c1)C(=O)N[C@H](CC(C)C)C(=O)N[C@@H](Cc1c[nH]c2ccccc12)C(=O)N[C@@H](C(=O)N[C@@H](Cc1c[nH]c2ccccc12)C(=O)NCCO)C(C)C)[C@H](C)O)C(C)C)C(C)C | broth microdilution | JCM 5803 |  | 1.1 µM |
| CCCCCCCC(=O)N[C@@H](CCCNC(=N)N)C(=O)N[C@@H](CCCNC(=N)N)C(=O)N[C@@H](CCCNC(=N)N)C(=O)N[C@@H](CCCNC(=N)N)C(=O)N[C@H](C(=O)N[C@@H](CC(C)C)C(=O)N[C@H](C(=O)N[C@@H](CCCCN)C(=O)N[C@@H](CCCCN)C(=O)N[C@H](C(=O)N[C@@H](CC(C)C)C(=O)N[C@@H](CCCCN)C(=O)N[C@@H](CC(C)C)C(=O)N[C@@H](CCCCN)C(=O)N[C@@H](CO)C(=O)N[C@@H](CO)C(=O)N[C@@H](C)C(=O)N[C@@H](Cc1ccc(O)cc1)C(N)=O)C(C)C)[C@@H](C)CC)[C@@H](C)CC | broth microdilution | ATCC 29212 | highest value reported | 64 µM |
| CCCNc1nc(N(C)C)c2c(c1O)C(=O)C1=C(O)[C@]3(O)C(=O)C(C(N)=O)=C(O)[C@@H](N(C)C)[C@@H]3C[C@@H]1C2.Cl.Cl |  | tet(M)-carrying |  | > 32 µg/mL |
| CN[C@H](CC(C)C)C(=O)N[C@H]1C(=O)N[C@@H](CC(N)=O)C(=O)N[C@H]2C(=O)NC3C(=O)N[C@H](C(=O)N[C@H](C(=O)NCCC[N+](C)(C)C)c4cc(O)cc(O)c4-c4cc3ccc4O)[C@H](O)c3ccc(c(Cl)c3)Oc3cc2cc(c3OC2OC(CO)C(O)[C@H](O)[C@@H]2O[C@H]2CC(C)(NCc3ccc(-c4ccc(Cl)cc4)cc3)[C@H](O)[C@H](C)O2)Oc2ccc(cc2Cl)[C@H]1O (stereo partly shown) |  | BM 4166 vanA | together with: 100 µg/mL POPE plus LTA | 1 µg/mL |
| CNc1nc(Cl)c2c(c1O)C(=O)C1=C(O)[C@]3(O)C(=O)C(C(N)=O)=C(O)[C@@H](N(C)C)[C@@H]3C[C@@H]1C2.Cl.Cl.Cl |  | tet(M)-carrying |  | 8 µg/mL |
| CCCCCCCCCCCCCCCC(=O)NS(=O)(=O)OCCCC |  | ATCC 33186 |  | > 200 µg/mL |
| CN(C)c1ncc(O)c2c1C[C@H]1C[C@H]3[C@H](N(C)C)C(O)=C(C(N)=O)C(=O)[C@@]3(O)C(O)=C1C2=O.Cl.Cl |  | tet(M)-carrying |  | 32 µg/mL |
| CCCCCC(=O)N[C@@H](CCCNC(=N)N)C(=O)N[C@@H](CCCNC(=N)N)C(=O)N[C@@H](CCCNC(=N)N)C(=O)N[C@@H](CCCNC(=N)N)C(=O)N[C@H](C(=O)N[C@@H](CC(C)C)C(=O)N[C@H](C(=O)N[C@@H](CCCCN)C(=O)N[C@@H](CCCCN)C(=O)N[C@H](C(=O)N[C@@H](CC(C)C)C(=O)N[C@@H](CCCCN)C(=O)N[C@@H](CC(C)C)C(=O)N[C@@H](CCCCN)C(=O)N[C@@H](CO)C(=O)N[C@@H](CO)C(=O)N[C@@H](C)C(=O)N[C@@H](Cc1ccc(O)cc1)C(N)=O)C(C)C)[C@@H](C)CC)[C@@H](C)CC | broth microdilution | ATCC 29212 | highest value reported | 64 µM |
